Experimental data pooled from the literature.
A part holds a random share of what one study measured. Several values in a cell are separate wells, animals, samples, runs or records.

Series 1
Host: human
Sample: microsomes or S9
Tested at: 2 µM
Time: 0.5 h
Structure (SMILES)	remaining compound [%]
CC(=O)c1c[nH]c(C(=O)Nc2cc(C(F)(F)F)ccc2O)c1	1.12
CC(C)O[C@H]1C[C@@H](NC(=O)Nc2ccnnc2)C1	96.8
c1ccc(-c2csc3nc(-c4cccnc4)nc(Oc4ccc5ccncc5c4)c23)cc1	59.4
COC(=O)CC(c1ccc(OC)c(OC(C)C)c1)c1c(O)cc(C)[nH]c1=O (stereo not drawn)	> 99
COC(=O)c1c(NCc2ccccc2C(F)(F)F)c2cccc(Cl)c2[nH]c1=O	69
COC(=O)/C(=C/C(C)=C/c1cc(C(=O)OC)nc(O)n1)OC	1.38

Series 2
Structure (SMILES): Cc1ccc(NC(=O)c2ccnc(C(F)(F)F)c2)cc1-c1cc(OCCO)nc(N2CCOCC2)c1
Method: competitive binding panel
Tested at: 1 µM
Reference: vehicle
target	measured	remaining binding
PIK3CD (Homo sapiens, UniProt O00329)		100%
MAP3K19 (Homo sapiens, UniProt Q56UN5)	YSK4	81%
DYRK1B (Homo sapiens, UniProt Q9Y463)		98%
HIPK4 (Homo sapiens, UniProt Q8NE63)		98%
PIM1 (Homo sapiens, UniProt P11309)		88%
MAPKAPK2 (Homo sapiens, UniProt P49137)		100%
EPHA6 (Homo sapiens, UniProt Q9UF33)		91%
CLK4 (Homo sapiens, UniProt Q9HAZ1)		100%

Series 3
Cell line: mouse MPNST tumor cells
Method: high-content nuclear imaging
Measured: cell number
Tested at: 10 µM
Time: 12 h
Notes: mean of 2 replicates
Reference: plate mean
Reading: higher = more cells
Structure (SMILES)	nuclei count
CC(=O)OC[C@H]1O[C@@H]([S-])[C@H](OC(C)=O)[C@@H](OC(C)=O)[C@@H]1OC(C)=O.CCP(CC)CC.[Au+]	-5.42 z-score
CNc1cc2[nH]c(=O)n(-c3ccc(NC(=O)NS(=O)(=O)c4ccc(Cl)s4)cc3)c(=O)c2cc1F	2.58 z-score
Cc1c[nH]c2ncnc(-c3ccc(NC(=O)N(CCO)c4ccccc4)cc3)c12	0.793 z-score
COCC(=O)NCCc1c(C)[nH]c2ccc(O)cc12	0.517 z-score
Cc1onc(-c2c(Cl)cccc2Cl)c1C(=O)N[C@@H]1C(=O)N2[C@@H]1SC(C)(C)[C@@H]2C(=O)O	-0.0561 z-score
CC(C)CN(C[C@@H](O)[C@H](Cc1ccccc1)NC(=O)O[C@H]1CCOC1)S(=O)(=O)c1ccc(N)cc1	1.91 z-score and 0.492 z-score
CN(C)C(=O)n1nnnc1Cc1ccc(-c2ccccc2)cc1	-1.19 z-score
c1ccc(CN(CC2=NCCN2)c2ccccc2)cc1	0.964 z-score

Series 4
Organism: Plasmodium berghei
Action: inhibitor
Cell line: Huh-7
Strain: liver stage
Tested at: 10 µM
Time: 24 h
Reference: untreated control
SMILES	infection rate [%]
COc1ccc(OC)c(C(O)CNC(=O)CN)c1 (stereo not drawn)	94.8
FC(F)(F)C(Cl)Br (stereo not drawn)	104
Cc1c(Nc2ncccc2C(=O)O)cccc1C(F)(F)F	76.8
COc1c(N2CCNC(C)C2)c(F)cc2c(=O)c(C(=O)O)cn(C3CC3)c12 (stereo not drawn)	86
C[C@H]1C[C@@H]2[C@H]([C@@H](O)C[C@@]3(C)[C@H]2CC[C@]3(O)C(=O)COC(=O)CCC(=O)O)[C@@]2(C)C=CC(=O)C=C12	113
COc1ccc2cc([C@H](C)CO)ccc2c1	86.7
C[C@]12CCC(=O)C=C1CC[C@@H]1[C@@H]2[C@@H](O)C[C@@]2(C)[C@H]1CC[C@]2(O)C(=O)CO	104

Series 5
Target: Alpha-1A adrenergic receptor (ADRA1A, Homo sapiens, UniProt P35348)
Observed: binding
Method: radioligand binding
Tested at: 10 µM
Target sequence (P35348 1-466): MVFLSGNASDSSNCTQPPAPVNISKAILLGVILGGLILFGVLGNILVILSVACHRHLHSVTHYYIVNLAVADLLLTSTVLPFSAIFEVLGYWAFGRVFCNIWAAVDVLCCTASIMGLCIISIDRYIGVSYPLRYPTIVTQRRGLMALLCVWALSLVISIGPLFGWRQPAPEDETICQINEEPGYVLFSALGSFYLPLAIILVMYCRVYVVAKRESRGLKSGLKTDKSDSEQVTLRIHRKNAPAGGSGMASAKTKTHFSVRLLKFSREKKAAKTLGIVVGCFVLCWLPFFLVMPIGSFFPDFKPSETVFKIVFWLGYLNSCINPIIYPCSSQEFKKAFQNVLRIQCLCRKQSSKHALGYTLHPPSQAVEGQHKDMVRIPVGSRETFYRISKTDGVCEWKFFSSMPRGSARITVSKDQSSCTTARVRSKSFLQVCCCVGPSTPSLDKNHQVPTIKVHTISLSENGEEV
SMILES	inhibition
CC(=O)c1c(NS(C)(=O)=O)c2cc(-c3ccc(Cl)cc3)c(-c3ccc(Cl)cc3Cl)nc2n(C)c1=O	28.5%
CC1=C(C#N)C(c2ccc3c(c2)c(NC(=O)c2ccccc2C)nn3C)C(C#N)=C(C)N1	1.96%
CC(C)(O)c1cncc(-c2nc3ccc(F)cc3n2C2CC2)c1	-3.03%
O=C1CCc2cc(Nc3cc(OC4CCOCC4)c([N+](=O)[O-])cc3Cl)ccc2N1	-8.76%
O=C(O)c1cc(-c2ccc(C3CCNCC3)cc2)c2ccc(-c3ccc(C(F)(F)F)cc3)cc2c1	46.7%
O=C([C@H]1C[C@H](O)CN1c1ccc(Cl)cc1)N1CC2COCC(C1)N2Cc1ccc(Cl)cc1	7.02%
Cc1nc(Cc2cccc(C(F)(F)F)c2)sc1-c1ccc(C(N)=O)nc1	-13.7%
Cc1c(N2CCCC2)nc2ccc(Br)cc2c1C(=O)NC[C@H](CCC(=O)O)c1ccccc1Cl	1.72%
CCOCCn1cc(C(=O)Nc2ccc(-n3nc(-c4cccnc4)cc3C(F)(F)F)cn2)ccc1=O	29.3%
Cc1cc(-n2nc(Cc3cc(F)cc(C(F)(F)F)c3)nc2C)ccc1C(N)=O	-13.5%
O=C(Nc1cnc(Oc2ccc(F)cc2)nc1)N1CCc2ncccc2[C@@H]1c1ccc(F)cc1	-3.5%
CS(=O)(=O)NCC[C@H](NC(=O)c1cncc2c1cnn2-c1ccc(F)cc1)c1ccnc(S(C)(=O)=O)c1	-3.82%
O=C(NC[C@@H]1[C@H]2CN(C(=O)OCc3cc(C(F)(F)F)cc(C(F)(F)F)c3)C[C@@H]12)c1ccc2[nH]nnc2c1	4.06%
CN1C(=O)[C@@H](N2CCc3cn(Cc4ccccc4)nc3C2=O)COc2ccccc21	-0.5%
CN1CCN(C(=O)C(C)(C)c2ccc(C(=O)Nc3cn4cc(-c5ccncc5)ccc4n3)cc2)CC1	-5.18%
CCCOc1ccc([C@H]2[C@H](C(=O)O)[C@@H](c3ccc4c(c3)OCO4)CN2CC(=O)Nc2c(CC)cccc2CC)cc1	-9.09%
CNC(=O)Nc1ccc2c(c1)[C@]1(CC2)OC(=O)N(CC(=O)N(Cc2ccc(F)cc2)[C@@H](C)C(F)(F)F)C1=O	0.04%
O[C@]1(C(F)(F)F)CCCC[C@H]1Nc1ccc(F)cc1	-8.22%
CC(C)CC(=O)N1CCc2nc(-c3ccc(Br)cc3)nc(N(C)Cc3ccccc3)c2C1	-1.11%
COCc1nc2cnc3cc(-c4c(C)noc4C)c(OC[C@H]4CCNC4)cc3c2n1[C@H](C)c1ccccc1	0.31%
C[C@@]1(Cc2ccc(C#N)cc2)C(=O)N(c2cc(Cl)cc(Cl)c2)c2ncc(C(=O)NC3(c4nc(C5CCC5)no4)CC3)n21	-1.65%
C[C@@H]1CN(c2cc(-c3nn(C)c4ccc(OC5(C)CC5)cc34)ncn2)C[C@H](C)O1	-3.6%
CCOC(=O)c1cc2cc(-c3cc(C(=O)NCc4ccc(C(=O)O)cc4)nn3C)ccc2[nH]1	-6.15%
CC(=O)Nc1c(F)cc(C(=O)N[C@H]2CC[C@H](O)CC2)cc1O[C@@H](C)c1ccccc1	-12.8%
COc1nc2ccc([C@@](O)(c3ccccc3)C3CCN(C(C)=O)CC3)cc2c(Cl)c1Cc1ccc(-n2cccn2)cc1	10.3%

Repeated from above (series 3):
Structure (SMILES)	nuclei count
CNc1cc2[nH]c(=O)n(-c3ccc(NC(=O)NS(=O)(=O)c4ccc(Cl)s4)cc3)c(=O)c2cc1F	2.58 z-score
CC(=O)OC[C@H]1O[C@@H]([S-])[C@H](OC(C)=O)[C@@H](OC(C)=O)[C@@H]1OC(C)=O.CCP(CC)CC.[Au+]	-5.42 z-score
Cc1onc(-c2c(Cl)cccc2Cl)c1C(=O)N[C@@H]1C(=O)N2[C@@H]1SC(C)(C)[C@@H]2C(=O)O	-0.0561 z-score
c1ccc(CN(CC2=NCCN2)c2ccccc2)cc1	0.964 z-score
